Published values gathered from unrelated publications.
Each line is one published result; not all experiments were run side by side. ± marks the error that the study gave.

`CC(C)(C)OC(=O)N1CCN(c2ccc(Nc3ccnc4cc(Cl)ccc34)cc2)CC1` has an IC50 of 0.069 µM (Plasmodium falciparum; parasite growth, SYBR Green; D6; 72 h, blood stage).
The IC50 of `CS(=O)(=O)c1ccc(-c2cnc(N)c(-c3ccc(C(F)(F)F)nc3)c2)cc1` is reported as 5.1 µM (Plasmodium cynomolgi; hypnozoite (small EEF) growth; primary rhesus hepatocytes; day 3, compound added at 72 h).
`CC(C)[C@H](NC(=O)[C@@H]1CCCN1C(=O)[C@H](CCCNC(=N)N)NC(=O)[C@H](CS)NC(=O)[C@H](Cc1c[nH]c2ccccc12)NC(=O)[C@H](CCCNC(=N)N)NC(=O)[C@@H](Cc1ccccc1)NC(=O)[C@H](Cc1c[nH]cn1)NC(=O)[C@H](CCC(=O)O)NC(=O)[C@H](CS)NC(=O)[C@H](CS)NC(=O)[C@H](CCCCN)NC(=O)[C@@H]1CC(=O)N[C@@H](CCCNC(=N)N)C(=O)N[C@@H](C)C(=O)N[C@@H](CC(=O)O)C(=O)N[C@H](Cc2ccc(O)cc2)C(=O)N1)C(N)=O` [technetium-99m labelled] gave a tissue uptake of 0.95 ± 0.38 %ID/g (C57 mice, pancreas; intravenous, 0.037 MBq, 0.5 h).
The IC50 of `Cc1[nH]c2ccccc2c1CCNCc1ccc(/C=C/C(=O)NO)cc1` is reported as 295 µg (Lucilia cuprina; larval weight gain; LS strain, larvae on impregnated cotton wool; 24 h).
For `C#CCn1cc(C=O)c2cc([N+](=O)[O-])ccc21`, the IC50 was 2.41 µM (Leishmania major; parasite growth, resazurin; THP-1; 72 h, intracellular, amastigote).
For `O=C(Nc1ccc2c(c1)OCO2)c1ccccc1Sc1ccc([N+](=O)[O-])cc1`, the IC50 was over 100 µM (Human immunodeficiency virus 1; viral replication; MT4; 7 days).
With `CC(C)(C)CC(C)(C)Nc1c(-c2cccc(C#N)c2)nc2ncccn12` the IC50 was under 10 µM (Leishmania amazonensis; fluorimetry; peritoneal macrophages, RFP; 72 h, intracellular amastigotes).
`COc1cccc(-c2cc3ccccc3[nH]2)c1` gave an inhibition of 50.7% (RAW264.7; NO release, inhibitor, Griess; 50 µM, 20 h, LPS-stimulated).
`Clc1ccc2c(Nc3ccc(N4CCN(C5CC5)CC4)cc3)ccnc2c1` has an IC50 of 0.068 µM (Plasmodium falciparum; parasite growth, SYBR Green; DD2; 72 h, drug-resistant strain, blood stage).
With `O=C1CSC(=S)N1/N=C/c1cn(Cc2ccc(F)cc2)c2ccc([N+](=O)[O-])cc12` the IC50 was over 58 µM (Trypanosoma congolense; trypomastigotes, IL3000).
`COc1ccccc1CC(=O)Nc1ccccc1Sc1ccc([N+](=O)[O-])cc1` has an IC50 of 53.6 µM (Human immunodeficiency virus 1; viral replication; MT4; 7 days).
The IC50 of `CCCCN(Cc1ccc(C(=O)NO)cc1)C(=O)Nc1ccccc1` is reported as 137 µg (Lucilia cuprina; larval weight gain; LS strain, larvae on impregnated cotton wool; 24 h).
`Cc1ccc(NC(=O)c2ccc(CN3CCN(C)CC3)cc2)cc1Nc1nccc(-c2cncc(-c3oncc3C)c2)n1` — result for “MDS-UPDRS part II score”: 11.2 ± 5 (mild-to-moderate Parkinson's disease patients; oral, 50 mg once daily, pre-dose baseline, on anti-Parkinson medication; direction not given).
The IC50 of `Cc1cc(NC(=O)c2cc(C(F)(F)F)cc(C(F)(F)F)c2)ccc1NS(C)(=O)=O` is reported as under 5 µM (Trypanosoma brucei brucei; cell growth; Lister 427; 48 h).
`O=C(Nc1ccccc1F)c1ccccc1Sc1ccc([N+](=O)[O-])cc1` gave an IC50 of over 100 µM (Human immunodeficiency virus 1; viral replication; MT4; 7 days).
For `C(=NOCc1ccccc1)c1c(-c2ccccc2)[nH]c2ccccc12`, the inhibition was 85.3% (RAW264.7; NO release, inhibitor, Griess; 50 µM, 20 h, LPS-stimulated).
With `O=c1c(O)c(-c2cc(O)c(O)c(O)c2)oc2cc(O)cc(O)c12` the IC50 was 1.6 ± 0.5 µM (human alphaherpesvirus 2; viral replication; Vero, 333; 24 h).
`O=C1CSC(=S)N1/N=C/c1cn(Cc2cccc(Cl)c2)c2ccc([N+](=O)[O-])cc12` gave an IC50 of over 10 µM (Leishmania major; parasite growth, resazurin; THP-1; 24 h, intracellular, amastigote).
`O=c1c(O)c(-c2cc(O)c(O)c(O)c2)oc2cc(O)cc(O)c12` gave an IC50 of 3.11 µM (Human immunodeficiency virus 1; viral replication, inhibitor; TZM-bl, NL43; 48 h).
For `O=C1NC(=S)S/C1=C\c1cn(Cc2cccc(Cl)c2)c2ccc([N+](=O)[O-])cc12`, the IC50 was over 61 µM (Trypanosoma congolense; trypomastigotes, IL3000).
With `C=C1CC[C@@H]2[C@](C)(CCC[C@@]2(C)C(=O)O)[C@H]1CC[C@H](C)CC(=O)O` the IC50 was 3.5 µg/mL (Leishmania amazonensis; 72 h, pH 4.6, axenic amastigotes).
For `Cc1ccc(Cn2cc(/C=N/N3C(=O)CSC3=S)c3cc([N+](=O)[O-])ccc32)cc1`, the IC50 was over 10 µM (Leishmania major; parasite growth, resazurin; THP-1; 72 h, intracellular, amastigote).
For `FC(F)(F)Oc1ccc(-c2cnc3cc(Cl)ccc3c2Nc2ccc(N3CCOCC3)cc2)cc1`, the IC50 was at least 0.25 µM (Plasmodium falciparum; parasite growth, SYBR Green; D6; 72 h, blood stage).
For `O=Cc1c[nH]c2ccc([N+](=O)[O-])cc12`, the IC50 was over 131 µM (Trypanosoma congolense; trypomastigotes, IL3000).
For `O=Cc1cccc(-c2cc3cccc([N+](=O)[O-])c3[nH]c2=O)c1`, the IC50 was 5.6 µM (Trypanosoma brucei; parasite growth, resazurin; 74 h, trypomastigote).

Excerpt of the above:
For `C(=NOCc1ccccc1)c1c(-c2ccccc2)[nH]c2ccccc12`, the inhibition was 85.3% (RAW264.7; NO release, inhibitor, Griess; 50 µM, 20 h, LPS-stimulated).
With `O=c1c(O)c(-c2cc(O)c(O)c(O)c2)oc2cc(O)cc(O)c12` the IC50 was 1.6 ± 0.5 µM (human alphaherpesvirus 2; viral replication; Vero, 333; 24 h).
`O=C1CSC(=S)N1/N=C/c1cn(Cc2cccc(Cl)c2)c2ccc([N+](=O)[O-])cc12` gave an IC50 of over 10 µM (Leishmania major; parasite growth, resazurin; THP-1; 24 h, intracellular, amastigote).
